Experimental data from different studies.
Each line is one published result; not all experiments were run side by side. Numbers after ± are the reported error.
Beta-lactamase CTX-M-27: Beta-lactamase CTX-M-27 (Escherichia coli, UniProt Q840M4)
PIN1: Peptidyl-prolyl cis-trans isomerase NIMA-interacting 1 (PIN1, Homo sapiens, UniProt Q13526)
Sequence of UniProt Q13526 (whole entry, looked up): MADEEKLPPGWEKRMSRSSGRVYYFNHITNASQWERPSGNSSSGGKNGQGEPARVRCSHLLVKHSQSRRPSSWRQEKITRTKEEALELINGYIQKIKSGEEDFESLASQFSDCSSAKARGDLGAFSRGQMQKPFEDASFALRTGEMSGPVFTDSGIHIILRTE
Sequence of UniProt O15392 (whole entry, looked up): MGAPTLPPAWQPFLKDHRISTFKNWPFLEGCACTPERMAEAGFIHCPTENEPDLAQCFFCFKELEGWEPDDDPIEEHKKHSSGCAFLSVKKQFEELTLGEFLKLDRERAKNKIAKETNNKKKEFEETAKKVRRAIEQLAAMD
Sequence of UniProt P37353 (whole entry, looked up): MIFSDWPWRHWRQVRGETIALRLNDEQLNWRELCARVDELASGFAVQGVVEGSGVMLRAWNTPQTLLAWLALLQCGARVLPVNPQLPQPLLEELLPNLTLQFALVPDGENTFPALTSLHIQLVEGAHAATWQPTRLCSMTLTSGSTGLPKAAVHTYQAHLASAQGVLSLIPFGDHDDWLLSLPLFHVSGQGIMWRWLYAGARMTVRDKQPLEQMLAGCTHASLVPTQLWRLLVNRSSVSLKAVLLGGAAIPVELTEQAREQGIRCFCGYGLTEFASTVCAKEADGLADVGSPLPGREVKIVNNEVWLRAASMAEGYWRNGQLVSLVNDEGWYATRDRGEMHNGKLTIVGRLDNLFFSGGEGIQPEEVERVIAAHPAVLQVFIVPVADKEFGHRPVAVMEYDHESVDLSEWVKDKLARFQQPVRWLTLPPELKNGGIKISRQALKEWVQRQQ
Sequence of UniProt Q8JGN5 (whole entry, looked up): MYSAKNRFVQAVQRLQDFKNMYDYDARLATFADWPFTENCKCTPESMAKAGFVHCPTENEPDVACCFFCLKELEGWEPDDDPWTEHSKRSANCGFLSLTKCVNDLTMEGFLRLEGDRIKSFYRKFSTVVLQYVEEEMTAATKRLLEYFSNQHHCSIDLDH
Sequence of UniProt Q8VD00 (whole entry, looked up): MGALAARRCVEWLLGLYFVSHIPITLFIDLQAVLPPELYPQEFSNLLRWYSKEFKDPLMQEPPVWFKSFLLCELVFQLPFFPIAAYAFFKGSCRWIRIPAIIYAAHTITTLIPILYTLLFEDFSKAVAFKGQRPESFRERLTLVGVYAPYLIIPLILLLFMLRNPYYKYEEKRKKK
Sequence of UniProt Q00987 (whole entry, looked up): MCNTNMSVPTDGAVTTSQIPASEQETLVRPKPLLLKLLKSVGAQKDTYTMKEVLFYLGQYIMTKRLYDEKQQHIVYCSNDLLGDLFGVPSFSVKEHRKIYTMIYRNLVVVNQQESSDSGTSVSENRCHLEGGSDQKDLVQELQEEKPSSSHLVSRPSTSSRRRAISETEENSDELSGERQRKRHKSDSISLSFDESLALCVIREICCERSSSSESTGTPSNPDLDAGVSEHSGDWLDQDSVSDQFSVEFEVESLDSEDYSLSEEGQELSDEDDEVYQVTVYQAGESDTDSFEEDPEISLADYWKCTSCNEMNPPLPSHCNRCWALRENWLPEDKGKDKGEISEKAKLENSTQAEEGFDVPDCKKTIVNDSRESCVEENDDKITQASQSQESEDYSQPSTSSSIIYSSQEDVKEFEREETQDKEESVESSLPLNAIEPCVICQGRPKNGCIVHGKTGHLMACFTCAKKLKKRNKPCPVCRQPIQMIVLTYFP
Sequence of UniProt P69905 (whole entry, looked up): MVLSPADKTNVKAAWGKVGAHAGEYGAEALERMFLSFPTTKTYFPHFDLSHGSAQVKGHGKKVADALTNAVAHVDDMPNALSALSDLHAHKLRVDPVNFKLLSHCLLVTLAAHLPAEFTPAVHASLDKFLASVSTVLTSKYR
Sequence of UniProt Q96P16 (whole entry, looked up): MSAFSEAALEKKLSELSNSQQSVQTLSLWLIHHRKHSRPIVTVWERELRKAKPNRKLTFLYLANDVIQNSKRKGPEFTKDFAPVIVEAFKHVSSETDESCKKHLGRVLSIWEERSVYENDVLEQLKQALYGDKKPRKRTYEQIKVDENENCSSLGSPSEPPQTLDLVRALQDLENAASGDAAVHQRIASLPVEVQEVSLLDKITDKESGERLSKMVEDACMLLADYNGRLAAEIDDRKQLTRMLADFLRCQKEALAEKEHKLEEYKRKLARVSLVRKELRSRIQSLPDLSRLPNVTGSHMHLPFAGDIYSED
Sequence of UniProt Q07741 (whole entry, looked up): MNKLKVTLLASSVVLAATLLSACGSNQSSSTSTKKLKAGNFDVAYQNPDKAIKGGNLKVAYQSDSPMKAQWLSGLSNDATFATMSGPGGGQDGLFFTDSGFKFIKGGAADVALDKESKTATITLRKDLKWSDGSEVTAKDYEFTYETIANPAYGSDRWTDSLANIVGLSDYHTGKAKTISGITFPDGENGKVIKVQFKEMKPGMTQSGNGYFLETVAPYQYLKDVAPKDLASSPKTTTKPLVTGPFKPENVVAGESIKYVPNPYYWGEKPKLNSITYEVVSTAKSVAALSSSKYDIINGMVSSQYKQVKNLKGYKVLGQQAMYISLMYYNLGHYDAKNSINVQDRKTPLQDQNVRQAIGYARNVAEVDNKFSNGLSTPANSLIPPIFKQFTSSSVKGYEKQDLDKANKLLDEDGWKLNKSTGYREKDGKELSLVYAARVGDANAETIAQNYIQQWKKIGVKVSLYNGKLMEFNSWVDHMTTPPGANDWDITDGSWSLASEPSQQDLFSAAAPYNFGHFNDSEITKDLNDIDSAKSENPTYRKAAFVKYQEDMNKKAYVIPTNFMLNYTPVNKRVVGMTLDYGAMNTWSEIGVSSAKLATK
Sequence of UniProt B9K712 (whole entry, unmodified, looked up): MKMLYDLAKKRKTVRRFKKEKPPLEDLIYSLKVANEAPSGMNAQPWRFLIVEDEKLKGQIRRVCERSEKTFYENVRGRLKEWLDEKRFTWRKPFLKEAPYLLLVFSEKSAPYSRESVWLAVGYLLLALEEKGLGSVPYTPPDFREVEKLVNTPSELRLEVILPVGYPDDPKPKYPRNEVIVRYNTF

COc1ccc(C)cc1NC(=O)OC1CC2CCCC(C1)N2Cc1ccc(CCF)cc1 (stereo not drawn) [fluorine-18 labelled]
Kd (Sigma intracellular receptor 2 (Tmem97, Mus musculus, UniProt Q8VD00); binding, radioligand saturation binding; EMT6 mouse breast tumour membranes): ~0.002 µM

CC(C)C[C@H](NC(=O)[C@H](CCC(N)=O)NC(=O)[C@@H]1CSSC[C@@H]2NC(=O)[C@H](CC(N)=O)NC(=O)[C@@H](N)CSSC[C@H](NC(=O)[C@H](Cc3ccccc3)NC(=O)[C@H](C)NC(=O)[C@H]([C@@H](C)O)NC(=O)[C@H](CCC(=O)O)NC(=O)[C@@H]3CCCN3C(=O)[C@H](C)NC(=O)[C@H](CCCCN)NC2=O)C(=O)N[C@@H](C)C(=O)N[C@@H](Cc2ccc(O)cc2)C(=O)N[C@@H](Cc2c[nH]c3ccccc23)C(=O)N1)C(=O)N[C@@H](Cc1c[nH]cn1)C(N)=O
Kd (Protein Mdm4, residues 24-108 (MDM4, Homo sapiens, UniProt O15151); binding, SPR competition; synthetic MDMX 24-108, together with: immobilized p53 peptide 15-29): 0.252 ± 0.023 µM

O=C(Nc1cccc(-c2nn[nH]n2)c1)c1cc(-c2cccs2)cc(C(F)(F)F)c1
Kd (Beta-lactamase CTX-M-27; surface plasmon resonance; 25 °C): 13.8 ± 1.2 µM

N[C@@H](Cc1ccc(O)c(I)c1)C(=O)O
Kd (Iodotyrosine deiodinase (IYD, Thermotoga neapolitana, UniProt B9K712, M41A); FMN fluorescence quenching; 25 °C, M41A variant): 0.25 ± 0.06 µM

O=C(Nc1cccc(-c2nn[nH]n2)c1)c1cc(-c2ccncn2)cc(C(F)(F)F)c1
Kd (Beta-lactamase CTX-M-27; surface plasmon resonance; 25 °C): 2.91 ± 0.05 µM

CSCC[C@H](NC(=O)[C@H](CC(=O)O)NC(=O)[C@H](CC(C)C)NC(=O)[C@@H](N)CCC(N)=O)C(=O)N[C@@H](Cc1ccccc1)C(=O)N[C@@H](CCCCN)C(=O)N[C@@H](CCC(=O)O)C(N)=O
Kd (Baculoviral IAP repeat-containing protein 5 (BIRC5, Homo sapiens, UniProt O15392); binding): > 0.3 µM

COc1cc(C=O)ccc1OCc1cccc(CO)n1
Kd (Hemoglobin subunit alpha, with beta chain (HBA1, Homo sapiens, UniProt P69905); steady-state binding, cation-exchange HPLC; 37 °C): 580 µM

COC(=O)[C@H](Cc1ccccc1)NC(=O)[C@@H]1CCCN1C(=O)[C@H](CO)NC(=O)[C@H](C)NC(C)=O
Kd (PIN1; binding; pH 7.4): 4.5 µM

Cc1cc(-c2ccc3c(c2)CCC3O)cc(C)c1O (stereo not drawn)
Kd (Estrogen receptor (ESR1, Homo sapiens, UniProt P03372); binding, competitive radioligand binding): 10 µM

N=C(N)NCCC[C@H](NC(=O)[C@H](Cc1ccccc1)NC(=O)[C@@H]1CCCN1C(=O)[C@H](CO)NC(=O)[C@H](Cc1ccccc1)NC(=O)CNC(=O)[C@@H]1CCCN1C(=O)[C@@H]1CCCN1C(=O)[C@@H](N)CCCNC(=N)N)C(=O)N[C@@H](CCCCNS(=O)(=O)c1ccc(C2=c3cc4c5c(c3Oc3c2cc2c6c3CCCN6CCC2)CCC[N+]=5CCC4)c(S(=O)(=O)[O-])c1)C(=O)O
Kd (Oligopeptide-binding protein OppA (oppA, Lactococcus lactis subsp. lactis, UniProt Q07741); binding, fluorescence anisotropy; pH 5, 30 °C, together with: dye-labelled peptide): 15.4 ± 0.7 µM

N[C@@H](Cc1c[nH]c2ccccc12)C(=O)O
Kd (txtE (Streptomyces scabiei, UniProt C9ZDC6); binding; pH 8): 39 µM

C[C@H](N)C(=O)N[C@@H](CCCNC(=N)N)C(=O)N[C@H](C(=O)N[C@@H](CCCCN)C(=O)N[C@@H](CCC(N)=O)C(=O)N[C@H](C(=O)N[C@@H](C)C(=O)N[C@@H](CCCNC(=N)N)C(=O)N[C@@H](CCCCN)C(=O)N[C@@H](CO)C(=O)N[C@H](C(=O)NCC(=O)O)[C@@H](C)O)[C@@H](C)O)[C@@H](C)OP(=O)(O)O
Kd (Baculoviral IAP repeat-containing protein 5.1-A (birc5.1-a, Xenopus laevis, UniProt Q8JGN5); ITC; pH 6.8, 25 °C): 6.79 ± 0.67 µM

CC(=O)N(CC(=O)N(C)[C@@H](C)C(=O)N(Cc1c[nH]c2cc(Cl)ccc12)[C@@H](C)C(=O)N(C)[C@@H](C)C(=O)N(CCC(C)(C)C)[C@@H](C)C(=O)N1CCNCC1)Cc1ccccc1
Kd (E3 ubiquitin-protein ligase Mdm2, N-terminal domain 17-125 (MDM2, Homo sapiens, UniProt Q00987); binding, SPR steady-state affinity; PBS with Tween; 10 °C, immobilised peptoid): 0.35 µM

CN[C@](C)(C[18F])C(=O)O
tracer uptake (A549 tumour model; host not given, tumour; 1 h, tumour-bearing): 3.8 %ID/g

COC(=O)[C@H](Cc1ccccc1)NC(=O)[C@@H]1CCCN1C(=O)[C@@H](NC(=O)[C@H](C)NC(C)=O)C(C)C
Kd (PIN1; binding; pH 7.4): 6.11 µM

CCOC(=O)CCCOc1ccc(C(c2cc3c4c(c2)CCCN4CCC3)=c2cc3c4c(c2)CCC[N+]=4CCC3)cc1
Kd (dL5** fluorogen-activating protein; fluorescence turn-on): 0.061 µM

C[C@@H](O)[C@H](NC(=O)[C@@H]1CCCN1C(=O)[C@H](CO)NC(=O)[C@H](Cc1ccc(O)cc1)NC(=O)[C@H](COP(=O)(O)O)NC(=O)[C@@H]1CCCN1C(=O)[C@H](COP(=O)(O)O)NC(=O)[C@@H](NC(=O)[C@@H]1CCCN1C(=O)[C@H](CO)NC(=O)[C@H](Cc1ccc(O)cc1)NC(=O)[C@H](CO)NC(=O)[C@@H]1CCCN1C(=O)[C@@H](N)CO)[C@@H](C)O)C(=O)N[C@@H](COP(=O)(O)O)C(=O)N1CCC[C@H]1C(=O)N[C@@H](COP(=O)(O)O)C(=O)N[C@@H](Cc1ccc(O)cc1)C(=O)N[C@@H](CO)C(=O)O
Kd (Regulation of nuclear pre-mRNA domain-containing protein 1A, CID domain (RPRD1A, Homo sapiens, UniProt Q96P16); isothermal titration calorimetry; pH 7.5, 25 °C): > 1000 µM

O=C(Nc1cccc(-c2nn[nH]n2)c1)c1cc(-c2cncnc2)cc(C(F)(F)F)c1
Kd (Beta-lactamase CTX-M-27; surface plasmon resonance; 25 °C): 4.41 ± 0.04 µM

CC[C@H](C)[C@@H]1NC(=O)[C@H]([C@@H](C)O)NC(=O)CNC(=O)[C@H](CCCNC(=N)N)NC(=O)[C@H](CC(C)C)NC(=O)[C@@H]2CSSC[C@H](NC1=O)C(=O)N[C@H](C(=O)N[C@@H](CO)C(=O)NCC(N)=O)CSSC[C@H](NC(=O)[C@H](C)N)C(=O)N[C@@H](C)C(=O)N[C@@H](Cc1c[nH]c3ccccc13)C(=O)N2
Kd (Chymotrypsinogen A, activated (alpha-chymotrypsin) (Bos taurus, UniProt P00766); SPR; pH 7.4, 25 °C): 0.00084 µM

Nc1ncnc2c1ncn2[C@@H]1O[C@H](COc2cncc(CCC(=O)c3ccccc3C(=O)O)c2)[C@@H](O)[C@H]1O
Kd (2-succinylbenzoate--CoA ligase (menE, Escherichia coli, UniProt P37353); isothermal titration calorimetry; 22 °C): 0.505 µM

CCCCCCCCCCCCCCCC(=O)OCC(CSC[C@H](N)C(=O)N[C@@H](CO)C(=O)N[C@@H](CCCCN)C(=O)N[C@@H](CCCCN)C(=O)N[C@@H](CCCCN)C(=O)N[C@@H](CCCCN)C(=O)NCCCCCC(=O)N[C@@H](CCCCN)C(=O)N[C@@H](CC(C)C)C(=O)N[C@H](C(=O)N[C@@H](Cc1ccccc1)C(=O)N[C@@H](Cc1ccccc1)C(=O)N[C@@H](Cc1ccc2ccccc2c1)C(=O)O)C(C)C)OC(=O)CCCCCCCCCCCCCCC (stereo partly drawn)
Kd (Amyloid-beta precursor protein (APP, Homo sapiens, UniProt P05067); binding, MST): 0.041 µM

Repeated from above:
Nc1ncnc2c1ncn2[C@@H]1O[C@H](COc2cncc(CCC(=O)c3ccccc3C(=O)O)c2)[C@@H](O)[C@H]1O
Kd (2-succinylbenzoate--CoA ligase (menE, Escherichia coli, UniProt P37353); isothermal titration calorimetry; 22 °C): 0.505 µM

CCCCCCCCCCCCCCCC(=O)OCC(CSC[C@H](N)C(=O)N[C@@H](CO)C(=O)N[C@@H](CCCCN)C(=O)N[C@@H](CCCCN)C(=O)N[C@@H](CCCCN)C(=O)N[C@@H](CCCCN)C(=O)NCCCCCC(=O)N[C@@H](CCCCN)C(=O)N[C@@H](CC(C)C)C(=O)N[C@H](C(=O)N[C@@H](Cc1ccccc1)C(=O)N[C@@H](Cc1ccccc1)C(=O)N[C@@H](Cc1ccc2ccccc2c1)C(=O)O)C(C)C)OC(=O)CCCCCCCCCCCCCCC (stereo partly drawn)
Kd (Amyloid-beta precursor protein (APP, Homo sapiens, UniProt P05067); binding, MST): 0.041 µM
